{"data": "Published values pooled from the literature", "note": "Every numbered part comes from another study and shows a few of its results, in no order."}
{"data": "Sample 1", "target": "Ras GTPase-activating protein-binding protein 1, full length (G3BP1, Homo sapiens, UniProt Q13283)", "method": "RNA Bind-n-Seq", "form": "RNA", "sample": "in vitro", "concentration": "200 nM", "notes": "whole 134-nt RNA, ends assumed", "with": "150 mM LiCl", "reference": "input library", "reading": "higher = stronger binding", "each molecule": "7-deaza-guanosine replaces G", "chain of UniProt Q13283 (whole entry, looked up)": "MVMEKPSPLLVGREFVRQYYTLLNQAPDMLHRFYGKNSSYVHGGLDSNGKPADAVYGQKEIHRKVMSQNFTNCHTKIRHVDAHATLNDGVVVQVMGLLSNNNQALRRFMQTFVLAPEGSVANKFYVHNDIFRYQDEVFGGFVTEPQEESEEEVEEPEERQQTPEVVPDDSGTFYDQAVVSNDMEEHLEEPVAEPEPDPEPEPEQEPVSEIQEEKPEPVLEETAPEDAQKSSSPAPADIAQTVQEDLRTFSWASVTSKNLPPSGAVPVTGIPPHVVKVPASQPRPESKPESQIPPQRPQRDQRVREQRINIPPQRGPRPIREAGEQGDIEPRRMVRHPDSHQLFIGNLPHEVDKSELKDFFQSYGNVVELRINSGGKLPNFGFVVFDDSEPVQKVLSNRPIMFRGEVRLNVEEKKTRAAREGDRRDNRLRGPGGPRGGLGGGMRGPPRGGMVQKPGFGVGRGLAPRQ"}
{"Strand": "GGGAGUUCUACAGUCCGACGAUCUAAUUUUAGAGGAGGAUCUGAUGGAUAUGGCAGUGGACGUGGAUUUGGGGAUGGCUAUAAUGGGUAUGGAGGAGGACCUGGAGGUGGCAAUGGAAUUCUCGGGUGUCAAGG", "log2 enrichment": -0.2}
{"Strand": "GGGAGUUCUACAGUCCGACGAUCACCAUGCAGGUGGGCAUCCUUGGGAAGUGGGGCAAGGGGGGGAUAGGGAGGGGGGUAACACUUUGGGAACAGGUGGUCCCAGGUCGUUUCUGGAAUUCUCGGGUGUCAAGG", "log2 enrichment": 0.352}
{"Strand": "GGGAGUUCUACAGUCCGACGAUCAGUCCUGUGCUACACAUCGUAUGUACCGAAUCGGGGAAAAGGAAAAGGGGAAAAGGGGAAAGUAUUAUGUUACGCCGUUCGGAUCUGCACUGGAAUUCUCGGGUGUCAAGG", "log2 enrichment": 0.263}
{"Strand": "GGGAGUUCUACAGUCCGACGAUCUGGGAGGUGGAUUUUGUUUAUUUCUUUAGCUCAUUUCCAGGGGUGGGAAUUUUUUUUUAAUAUGUGUCAUGAAUAAAGUUGUUUUUGAAAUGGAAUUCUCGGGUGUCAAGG", "log2 enrichment": -0.879}
{"Strand": "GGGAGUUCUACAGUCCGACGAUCUUCCUCAAGUCCUGUGCUACACAUCGUAUGUACCGAAUCGGAGGAGGAGGGAAAGUAUUAUGUUACGCCGUUCGGAUCUGCACUUCCAGCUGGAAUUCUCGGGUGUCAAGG", "log2 enrichment": -1.65}
{"Strand": "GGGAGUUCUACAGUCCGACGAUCACCAUGCAGGUGGGCAAAAUUGGGAAGUGGGGCAAGGGGGGGAUAGGGAGGGGGGUAACACUUUGGGAACAGGUGGUCCCAGGUCGUUUCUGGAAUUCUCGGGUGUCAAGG", "log2 enrichment": 0.0949}
{"Strand": "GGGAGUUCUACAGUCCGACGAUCCCUCAAGUCCUGUGCUACACAUCGUAUGUACCGAAUCGGGUUGGUUGGGUUGGAAAGUAUUAUGUUACGCCGUUCGGAUCUGCACUUCCAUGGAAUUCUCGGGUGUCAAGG", "log2 enrichment": 0.154}
{"Strand": "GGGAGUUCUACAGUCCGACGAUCCCUGUGCUACACAUCGUAUGUACCGAAUCGGGUUUUUUGGGGUUUUUUGGUUUUUUGGGGAAAGUAUUAUGUUACGCCGUUCGGAUCUGCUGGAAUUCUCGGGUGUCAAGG", "log2 enrichment": 0.211}
{"Strand": "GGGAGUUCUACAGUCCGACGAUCUGGGAGGUGCAUUUUGUUUAUUUUUUUAGCUCAUUUCCAGGGGUGGGAAUUUUUUUUUAAUAUGUGUCAUGAAUAAAGUUGUUUUUGAAAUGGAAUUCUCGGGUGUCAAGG", "log2 enrichment": -0.164}
{"Strand": "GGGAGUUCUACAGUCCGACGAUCUCCUCAAGUCCUGUGCUACACAUCGUAUGUACCGAAUCGGUGGUGGGUGGGGAAAGUAUUAUGUUACGCCGUUCGGAUCUGCACUUCCAGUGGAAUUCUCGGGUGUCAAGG", "log2 enrichment": 0.851}
{"Strand": "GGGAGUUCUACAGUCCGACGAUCAAUAACUGACGCUGCAUUUAAUUUUUUUGCCAGUUUAAAAUGUUUGUGUGUUUUUAUAGAUGAUUUUAACUGGUACAUAUUUUGAGUUAAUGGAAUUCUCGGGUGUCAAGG", "log2 enrichment": -3.15}
{"data": "Sample 2", "target": "RNA binding protein fox-1 homolog 2, RRM domain, GST-SBP tag (RBFOX2, Homo sapiens, UniProt O43251-10, residues 100-194)", "method": "RNA Bind-n-Seq", "form": "RNA", "sample": "in vitro", "concentration": "365 nM", "notes": "natural RNA segment, single round, ends assumed", "reference": "no-protein control", "reading": "higher = stronger binding", "Target sequence (chain)": "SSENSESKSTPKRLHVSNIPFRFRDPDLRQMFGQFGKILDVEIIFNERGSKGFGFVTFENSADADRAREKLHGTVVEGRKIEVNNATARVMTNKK"}
{"Strand": "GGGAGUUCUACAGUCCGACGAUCGAGGUUGGUUUGGGGACCAACCAAGCUACCAACCUUAAGGGUAACUUGGUCUCGAUUUAGGAGCCUGGAAAUACUCCGUUAUACAAGUUUGUGCUUUCUUUCUUUCUUUCUGGAAUUCUCGGGUGCCAA", "RBNS enrichment (R)": 0.989}
{"Strand": "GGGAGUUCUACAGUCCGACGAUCCUCCACUUUCUUUAAGAAUCAGGGGGUACAGAAUAACCUACAAACAACCUCUUCAAAGUACCCUUGGAAAUUGAAGUUCAAUCUUAAGUUUUUUGCUGUCUUUAAUUUACUGGAAUUCUCGGGUGCCAA", "RBNS enrichment (R)": 0.367}
{"Strand": "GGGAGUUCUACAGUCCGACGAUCAUAGGUGGAAUAUGACUGCUCAGAAAGUUAAACUUUAAUUUAUUGAAUUGUACAUAGCUGGAUGUAAAUAGGAGCGUGUCUGUCAGGUUUUAUUCUUGUUUUGCCUUUUGUGGAAUUCUCGGGUGCCAA", "RBNS enrichment (R)": 0.497}
{"Strand": "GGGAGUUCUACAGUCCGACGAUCGCUGCAGCCGGCUCACCUCUCUCCGCUUCUUGCACAUCACUGGCCUGUGUGUGCUGCUUGCUCCUGUUCUGUUCGCUUGCUCCCGUUCCGUUCGGCUUUUGCUUUGCGUUUGGAAUUCUCGGGUGCCAA", "RBNS enrichment (R)": 7.4}
{"Strand": "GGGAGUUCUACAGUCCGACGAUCUGGUUCUGGUUUAACUAAUAUUUGUCUGUGUGCUACUAACAGAUUAUAAUAAAUUGUCAUCAGUGAACUGUGUUUGAUGCCUUCUUCUAUCUGGAAGAGAUAGACAGACAUGGAAUUCUCGGGUGCCAA", "RBNS enrichment (R)": 0.588}
{"Strand": "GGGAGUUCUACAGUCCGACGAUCGCAUUUAGUUUUGUCUUUCUCAGGGUAUAGUCAAUAUGCCUGCAGGAGUUUCUAUAGCGAGACAUAGAAUAGUAUUCUGAUCAGUUGCCAAAGAAUCUAGGAAAUUAGUUUGGAAUUCUCGGGUGCCAA", "RBNS enrichment (R)": 0.532}
{"Strand": "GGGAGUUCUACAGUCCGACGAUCAUGGAGGCAGCGUGUACACAUCGUCUUGAGUUUACGUUAUGACAUGGUUUAUUUUUAGUGCUAUUUUGUUAUAUGAUUGCCAUUGAAAAUAAUAAAAAGAAUGUUGGUUUUGGAAUUCUCGGGUGCCAA", "RBNS enrichment (R)": 0.293}
{"Strand": "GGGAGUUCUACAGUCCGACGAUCUUAUUUAUGAAAAAAAAUGCUAAUAAUUUUGGGGCAGUUUUUUCCUUUAAUUAUUUUUUUCAAUUUCAAGUUUAAUUUUAUUUUAGCUGAUCUGAUGUGGUUUCAACUAAUGGAAUUCUCGGGUGCCAA", "RBNS enrichment (R)": 0.638}
{"Strand": "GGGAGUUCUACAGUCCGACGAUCUUUUUGGUUGCCUAGACAUCAGGUAAACAUUCAGUACACUAAAGAAACUAUCCUGGACACUCCCUCCUGCUUCCACCAAUUUUUUUCUCACCCCCUUUUCAAAAAUUGAAUGGAAUUCUCGGGUGCCAA", "RBNS enrichment (R)": 0.75}
{"Strand": "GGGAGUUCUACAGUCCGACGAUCCAGCUCCAAGACAAGAAUGAACCUGGCUGUGUCAGUCAUUUUGUCUUUUCCUUUUUUUUUUUUUUUUGCCACAUUGGCAGAGAUGGGACCUAAGGGUCCCACCCCUCACCUGGAAUUCUCGGGUGCCAA", "RBNS enrichment (R)": 0.794}
{"Strand": "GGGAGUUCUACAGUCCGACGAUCAGUCAGAGGCACCAAGUCUAACUCUCAGCAUUUUUCCAAUAAAUGUUCUCCCUUGGCCCCUCUCCUGGCCACCACAAAGCUCCUUUUCUAAACUGUCCUGGGCAGAAGUCUGGAAUUCUCGGGUGCCAA", "RBNS enrichment (R)": 0.537}
{"Strand": "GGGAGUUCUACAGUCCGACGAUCGGUUUCAGAAUAAACUCAGAGAAAACUUCAGGCUAAGAGACAGUGCUGCGUAGCUGUGUUGUUUCCUGUUAUGAGCAUUGGAAAUUGGGUUCUCCUUCUGUGAGCAUGGAUGGAAUUCUCGGGUGCCAA", "RBNS enrichment (R)": 2.37}
{"data": "Sample 3", "target": "Interferon regulatory factor 5, full length, phosphomimetic (IRF5, Homo sapiens, UniProt Q13568-2, residues 1-514, K96S/S451D/S453D/S456D/S462D)", "method": "protein-binding microarray", "form": "double-stranded DNA, one strand shown", "sample": "in vitro", "concentration": "250 nM", "notes": "60-bp whole probe", "with": "salmon DNA 0.4 mg/ml", "reference": "random background probes", "reading": "higher = stronger binding", "shared flanks, not repeated": "GCCTAGCAC … GTCTTGATTCGCTTGACGCTGCTG"}
{"Strand": "GACGGTATCCTACTGCTAACGTGCTAG", "log fluorescence [z-score]": -0.0264}
{"Strand": "TTAGAACTGGGGTATAGATTAGTGCTA", "log fluorescence [z-score]": -0.0734}
{"Strand": "GACGGTATCATTTTCCTGACGTGCTAG", "log fluorescence [z-score]": 1.29}
{"Strand": "ATTGCTTCCTCTTTTTTGTTGTGCTAG", "log fluorescence [z-score]": 1.02}
{"Strand": "TTAGATATAAGTCTCGATTAGTGCTAG", "log fluorescence [z-score]": 1.06}
{"Strand": "CAAACACTAGTTTTTACTTTGTGCTAG", "log fluorescence [z-score]": 0.404}
{"Strand": "TCACATCTGGGTATTTTACTGTGCTAG", "log fluorescence [z-score]": 0.342}
{"Strand": "AGCAGTTTCTCAACCACTTTGTGCTAG", "log fluorescence [z-score]": 0.907}
{"Strand": "GACGGTCTCTGACTGGGGACGTGCTAG", "log fluorescence [z-score]": -0.421}
{"Strand": "TCAGGAGTGTTTCTCAGACTGTGCTAG", "log fluorescence [z-score]": -0.309}
{"Strand": "TTAGGTCTCCTTATTCTTTAGTGCTAG", "log fluorescence [z-score]": 0.112}
{"Strand": "GACGGTTACCTACTGCTGACGTGCTAG", "log fluorescence [z-score]": -0.212}
{"Strand": "TCAATCTTCACTCTTAATTAGTGCTAG", "log fluorescence [z-score]": 1.02}
{"Strand": "CTTACTTCCCAATTGTCTTTGTGCTAG", "log fluorescence [z-score]": 0.569}
{"Strand": "TTAGATATAGGGTTTCGATTAGTGCTA", "log fluorescence [z-score]": 5.21}
{"Strand": "GACGGTCTCCTACCGCTGACGTGCTAG", "log fluorescence [z-score]": -0.315}
{"Strand": "GATGGTATCGACTATCGGGACGTGCTA", "log fluorescence [z-score]": 4.79}
{"Strand": "GACGATATCAGTATCTAGACGTGCTAG", "log fluorescence [z-score]": 1.35}
{"Strand": "CACGGACTGCTACTGCTGACGTGCTAG", "log fluorescence [z-score]": -0.626}
{"data": "Sample 4", "target": "Histone acetyltransferase KAT6A, both winged helices, GST fusion (KAT6A, Homo sapiens, UniProt Q92794, residues 1-181)", "method": "protein binding microarray", "form": "double-stranded DNA, one strand shown", "sample": "in vitro", "concentration": "not given", "notes": "8-mer, flanks averaged, mean of 2 arrays, mostly near background", "reference": "not given", "reading": "higher = stronger binding", "Residues (chain)": "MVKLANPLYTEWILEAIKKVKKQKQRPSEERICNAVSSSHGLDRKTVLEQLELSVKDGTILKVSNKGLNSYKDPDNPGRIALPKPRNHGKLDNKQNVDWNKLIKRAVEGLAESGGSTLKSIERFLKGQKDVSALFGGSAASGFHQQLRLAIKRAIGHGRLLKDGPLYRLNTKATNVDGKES"}
{"Strand": "ATTACATA", "E-score": -0.091}
{"Strand": "AGAACTTC", "E-score": -0.0247}
{"Strand": "GTTGACGA", "E-score": -0.103}
{"Strand": "TAGGTATA", "E-score": -0.176}
{"Strand": "TGGACGAA", "E-score": 0.0832}
{"Strand": "CACTGGCC", "E-score": -0.0445}
{"Strand": "AATAAATC", "E-score": -0.0698}
{"Strand": "ACCAGAGG", "E-score": -0.239}
{"Strand": "AACGCGAC", "E-score": 0.168}
{"Strand": "GTAATCAC", "E-score": -0.0671}
{"Strand": "ACACGTGA", "E-score": -0.0351}
{"Strand": "TACGTCCA", "E-score": -0.103}
{"Strand": "AAGGCGTC", "E-score": 0.114}
{"Strand": "GTCTTGTA", "E-score": -0.0461}
{"Strand": "ATTAACTG", "E-score": -0.121}
{"Strand": "CTCAGTCC", "E-score": -0.0972}
{"Strand": "CCTAATAG", "E-score": -0.108}
{"Strand": "TAGCGCCA", "E-score": 0.229}
{"Strand": "GAGCGAAA", "E-score": 0.103}
{"note": "Some of these lines once more (sample 4):"}
{"Strand": "GTAATCAC", "E-score": -0.0671}
{"Strand": "ACACGTGA", "E-score": -0.0351}
{"Strand": "TACGTCCA", "E-score": -0.103}
{"Strand": "AAGGCGTC", "E-score": 0.114}
{"Strand": "GTCTTGTA", "E-score": -0.0461}
{"Strand": "ATTAACTG", "E-score": -0.121}
{"Strand": "CTCAGTCC", "E-score": -0.0972}
{"Strand": "CCTAATAG", "E-score": -0.108}
